Assay results pooled from the literature.
Protocols differ between the studies behind these lines. ± gives the spread as reported.

CCO[C@H]1CCN(Cc2c(OC)cc(C)c3[nH]ccc23)[C@H](c2ccc(C(=O)O)cc2)C1  unbound AUCinf (human mild hepatic impairment, plasma; oral, 200 mg single dose, mean): 5980 ng·h/mL
O=C(NCC1CCOCC1)c1ccc(C2CCCCC2)cc1  hepatic clearance (hepatocyte stability; cryopreserved mouse hepatocytes; 1 µM): 76 mL/min/kg
CSCC[C@H](NC(=O)[C@H](CCCCN)NC(=O)[C@H](CCCNC(=N)N)NC(=O)[C@H](CO)NC(=O)[C@H](Cc1c[nH]c2ccccc12)NC(=O)[C@H](CCCNC(=N)N)NC(=O)[C@@H](CC(C)C)NC(=O)[C@@H](N)CCSC)C(=O)N1CCC[C@H]1C(=O)N[C@@H](CS)C(=O)N[C@H](C(=O)N[C@@H](CO)C(N)=O)C(C)C  remaining activity (12G5 competition, SUP-T1 cells; human plasma; concentration not given, 2 h): 92 ± 21%
CNc1ccc(-c2nc3ccc(O)cc3s2)cc1 [carbon-11 labelled]  SUV (ex vivo biodistribution; APP/PS1 mouse, AD model, cerebellum; intravenous, 30 min): 0.173 ± 0.09
O=C1NCCc2nc(OCc3cccc(F)c3)ccc21  Irwin test score (item: Salivation; Sprague-Dawley rat male; oral, 100 mg/kg, 4 h; direction not given): 0
O=C(O)CCCOc1ccc([18F])cc1-c1cc(-c2ccccc2C(F)(F)F)n(-c2ccccc2)n1  blood radioactivity (18F biodistribution; male ddY mouse, whole blood; intravenous, 2.1 MBq, 30 min): 0.2 ± 0.17 SUV
N#Cc1cnc2ccc(F)cc2c1N1CCC(C(=O)Nc2ccc(S(N)(=O)=O)cc2)CC1  intrinsic clearance (scaled) (rat liver microsomes): 66 mL/min/kg
O=C1CC2(CCCC2)CC(=O)N1CCCCN1CCN(c2ncccn2)CC1  remaining parent compound (LC-MS; human liver microsomes; 10 µM, 20 min, pH 7.4, together with: NADPH; baseline: time 0): 64%
Cl.[2H]C([2H])([2H])CC(=O)c1cnc(NC(=O)C2CC2)cc1Nc1cccc(-c2ncn(C([2H])([2H])[2H])n2)c1OC  AUC(0-inf) (geometric mean; human; oral, 100 mg single dose, fasted, liquid): 11300 ng·h/mL
C[C@]12CC[C@@H]3c4ccc(O)cc4CC[C@H]3[C@@H]1CCC2=O  milk fat partition ratio (cow whole milk; 2000 nM; baseline: milk fat over skim milk): 65.2
COc1ncc(-c2nc3c(n2C(C)C)[C@H](c2ccc(Cl)cc2)N(c2cc(Cl)cn(C)c2=O)C3=O)c(OC)n1  Cmax (LC-MS/MS; human, plasma; oral, 1 mg, cycle 1 day 8, low-dose arm): 15.5 ng/mL
C=CC(=O)NC1CCN(c2ncc3ncnc(Nc4ccc(Oc5ccc6c(c5)ncn6C)c(C)c4)c3n2)CC1  AUC(0-tz) (human, male, plasma; oral, 240 mg single dose, fed, geometric mean): 59.5 µM·h
COc1cc(C(=O)N2CCC3(CC2)CC(=O)c2c(cnn2C(C)C)C3)cc(-c2ccc(C(=O)O)cc2)n1  percentage change from baseline (item: total cholesterol; human, fasting serum; 3 mg every 12 h, day 13, adjusted geometric mean; baseline: baseline): -0.4%
CCOc1c([C@H](C)n2nc(C)c3c(N)ncnc32)cc(Cl)c(F)c1[C@@H]1CNC(=O)C1  ECG observations (item: QTcF ≤450 ms; previously treated B-cell malignancy; oral, 15 mg once daily, baseline QTcF ≤450 ms): 100%
NC(=O)CCNC(=O)c1ccc(C2CCCCC2)cc1  hepatic clearance (liver microsome stability; dog liver microsomes; 1 µM): 18 mL/min/kg
CCCCCNC(=O)N1CCC(CN(Cc2ccc(Cl)cc2)Cc2ccc([N+](=O)[O-])s2)C1 (stereo not shown)  blood cell fraction (item: EO%; C57BL/6 mouse, blood; 100 mg/kg twice daily, 7 days): 2.6 ± 0.7%
CCN1/C(=C/C(C)=O)Sc2ccc(F)cc21  diastolic blood pressure (cynomolgus monkey; oral, 10 mg/kg, 24 h post-dose): 79 ± 3 mmHg
Cc1ccc(Sc2ccccc2N2CCNCC2)c(C)c1  participants with TEAE (item: any TEAE; healthy adult women; oral, 5 mg daily, 12 days): 50%
O=c1oc(=O)n(Cc2cc(C(F)(F)F)cc(C(F)(F)F)c2)c2ccccc12  degradation rate constant (chemical stability, HPLC-MS; borate buffered saline; pH 10.2, no N-acetyl-lysine): 26.5 h⁻¹
CN1CCN(C(=O)c2ccc(C3CCCCC3)cc2)CC1  hepatic clearance (liver microsome stability; rat liver microsomes; 1 µM): 51 mL/min/kg
COc1ccnc(C(=O)O)c1O  KFoc (soil adsorption; clay loam soil; pH 7.2, organic carbon 4.4 %): 3880 mL/g
O=C(Nc1nc2cccc(-c3ccc(CN4CCS(=O)(=O)CC4)cc3)n2n1)C1CC1  treatment-emergent adverse events (item: asthenia; human rheumatoid arthritis patients; oral, 150 mg once daily, 4 weeks, regardless of relatedness): 0%
Cc1cc(C)c(CNC(=O)c2cc(Cl)c3c(c2C)O[C@@](C)([C@H]2CC[C@H](N(C)C)CC2)O3)c(=O)[nH]1  share of plasma radioactivity (human, plasma; oral, 200 mg): 77.1%
N#Cc1ccc2c(c1)[C@H]1CCCN(C(=O)c3ccc4[nH]cnc4c3)[C@H]1C2  pre-dose plasma concentration (human, plasma; 80 mg once daily, day 28): 1740 nmol/L
CC(C)C[C@H](NC(=O)CNC(=O)c1cc(Cl)ccc1Cl)B(O)O  treatment-emergent adverse events (item: Pneumonia; human newly diagnosed multiple myeloma; oral, dose not given, maintenance, grade 3, onset cycle 17 or later): 0%
CCc1cc(C(=O)NC)c2nccc(N3CCc4c(cc(Cn5ccnc5)cc4-c4cn(C)nc4C(F)(F)F)C3=O)c2c1  AUC extrapolated (CD-1 mouse, male, plasma; intravenous, 3 mg/kg): 0.1%
CNCc1ccc(-c2[nH]c3cc(F)cc4c3c2CCNC4=O)cc1  dysgeusia incidence (human patients; oral, 360 mg twice daily, all grades): 25%
COc1cccc(-c2n[nH]c(SCc3ccccn3)n2)c1OC  Cmax ratio (Sprague-Dawley rat, plasma; oral, 30 mg/kg; baseline: female over male): 0.89
Cc1cc(NC2CCN(C(=O)OC3CCN(C(=O)/C=C/CN(C)C)C3)CC2)n2ncc(C(C)C)c2n1 (stereo not shown)  patients with TEAE (CTCAE v4.0, item: Dizziness; patients with advanced solid tumours; oral, dose not given, all schedules, grade 3 or higher): 0%
C[C@@H](N)COc1ccc(-c2cnc3ccc(N[C@H](C)c4cccc(F)c4)nn23)cc1  unbound plasma concentration (female Balb/c nude mouse; 100 mg/kg once daily, 1 h, steady state): 450 ± 84 nM
COCCN(C)C(=O)c1ccc([C@H]2[C@@H](F)[C@@H](F)C[C@@H](F)[C@H]2F)cc1  hepatic clearance (hepatocyte stability; cryopreserved mouse hepatocytes; 1 µM): 64 mL/min/kg
Cn1cc([C@H]2C[C@H]3CSC(N)=N[C@@]3(c3ccc(F)cc3F)CO2)cn1  brain concentration (male 129/SVE mouse, brain; subcutaneous, 3 mg/kg, 1 h): 159 nM
C=CCn1c(=O)c2cnc(Nc3ccc(N4CCN(C)CC4)cc3)nc2n1-c1cccc(C(C)(C)O)n1  AUC(0-10 h) (human patients; oral, 300 mg once daily, day 17, cycle 1, together with: durvalumab 1500 mg iv): 7.98 µM·h
Cc1ccc(C(=O)N(CCCN)C(c2nc3snc(C)c3c(=O)n2Cc2ccccc2)C(C)C)cc1 (stereo not shown)  patients with adverse event (mucosal inflammation grade ≥3 (CTCAE); human patients; intravenous, 16 mg/day): 0%
O=C(COc1ccc(Cl)cc1)NC12CC(c3nnc([C@H]4C[C@@H](OC(F)(F)F)C4)o3)(C1)C2  treatment-emergent adverse events (item: Headache; healthy humans, both sexes; oral, 400 mg, single ascending dose; baseline: subjects): 33.3%
CC(C)(C(=O)N1CCOc2c(C#N)cncc2C1)C(F)F  share of subjects with TEAE (item: skin disorders; healthy humans, both sexes; oral, 20 mg single dose): 0%
O=C(Nc1ccc(OC(F)(F)Cl)cc1)c1cnc(N2CC[C@@H](O)C2)c(-c2ccn[nH]2)c1  grade ≥3 event rate (per laboratory record, item: hemoglobin decrease; human patients; oral, dose not given, dose-finding study): 1%
CN1C(=O)[C@@H](NC(=O)c2nnc(Cc3ccccc3)[nH]2)COc2cccnc21  TEAE leading to permanent discontinuation (phase I single ascending dose; human, male and female; oral, 100 mg, fasted): 0%
O=C(Nc1ccc(C2CCCCC2)cc1)[C@H]1CC1(F)F  hepatic clearance (liver microsome stability; dog liver microsomes; 1 µM): 26 mL/min/kg
CNC(=O)c1ccc(-c2cnc3ncc(Cc4ccc5ncccc5c4)n3n2)cc1F  Teratogenicity patients (Japanese patients; oral, 400 mg twice daily, any grade): 0%
CNC(=O)c1ccc(-c2cnc3ncc(Cc4ccc5ncccc5c4)n3n2)cc1F  patients with adverse event (item: Cough; other cancer patients; oral, 600 mg twice daily, expansion cohort, grade 3-4): 0%
O=C(N[C@H](Cc1c[nH]c2ccccc12)C(=O)Nc1ccncc1)c1ccc(-c2cc(C(F)(F)F)ccc2F)cc1F  concentration (Swiss Webster mouse, female, plasma; oral, 50 mg/kg, 8 h, 20% HPβCD vehicle): 310 nM
O=C(O)CCC(=O)O.[2H]C([2H])([2H])Oc1cc(C)c2[nH]ccc2c1CN1CC[C@@H](C2CC2)C[C@H]1c1ccc(C(=O)O)cc1  TEAE proteinuria (healthy Chinese subjects; 50 mg, single ascending dose): 0%
CC(C)(C)NC(=O)C1CCN(Cc2cccc(/N=N/c3cccc(F)c3)c2)CC1  absorption maximum, cis isomer (DMSO; 25 µM, 25 °C): 434 nm
NCc1ccc(-c2nn(Cc3ccncc3)c3ccccc23)o1  clearance (male CD1 mouse, plasma; intravenous, 5 mg/kg): 78.9 mL/min/kg
N#CCC(=O)Nc1ccc([C@H]2[C@@H](F)[C@@H](F)C[C@@H](F)[C@H]2F)cc1  hepatic clearance (liver microsome stability; rat liver microsomes; 1 µM): 6.1 mL/min/kg
NC(=O)c1[nH]cnc1N  AUC(0-8h) (human patients, plasma; IV infusion over 1 h, 1000 mg/m^2 DTIC, cycle 2 day 1, staggered with co-drug): 31600 ng·h/mL
COc1ccc2[nH]c([S+]([O-])Cc3ncc(C)c(OC)c3C)nc2c1 (stereo not shown)  degradation onset temperature (thermogravimetric analysis; raw compound): 153 °C
CN1CCN(C(=O)c2ccc(C3CCCCC3)cc2)CC1=O  hepatic clearance (liver microsome stability; human liver microsomes; 1 µM, without NADPH): 3.9 mL/min/kg
COc1ccc2[nH]c([S+]([O-])Cc3ncc(C)c(OC)c3C)nc2c1 (stereo not shown)  Cmax (healthy Chinese volunteers, plasma; oral, 20 mg, enteric-coated tablets, CYP2C19 normal metabolizers): 385 ± 241 ng/mL
Cn1ncnc1[C@H]1c2n[nH]c(=O)c3cc(F)cc(c23)N[C@@H]1c1ccc(F)cc1  AUC(0-8h) (human patients, plasma; oral, 600 µg/m2 twice daily day 1, day 5, dose level DL4, median, together with: temozolomide 30 mg/m2 daily days 2-6): 83.3 ng·h/mL
C[C@@H](Nc1cc(F)cc(F)c1)c1cc(C(=O)N(C)C)cc2c(=O)cc(N3CCOCC3)oc12  dose reduction due to AE (advanced solid tumour patients; oral, 120 mg twice daily, continuous monotherapy): 40%
C=CC(=O)N(C)CCOc1c(N)ncnc1-c1cc(F)cc(NC(=O)c2ccc(C3CC3)cc2F)c1C  AUC (human, whole blood; oral, 50 mg once daily, day 1): 116 ng·h/mL
CN(Cc1cccnc1)C(=O)c1ccc([C@H]2[C@@H](F)[C@@H](F)C[C@@H](F)[C@H]2F)cc1  hepatic clearance (liver microsome stability; mouse liver microsomes; 1 µM): 75 mL/min/kg
NC1(C(=O)N[C@@H](CCO)c2ccc(Cl)cc2)CCN(c2nc[nH]c3nccc2-3)CC1  incidence of blood creatinine increased (metastatic CRPC patients; 400 mg b.i.d., any grade, treatment-related, together with: enzalutamide 160 mg daily): 14.3%
O=C(O)c1cc(=O)[nH]c(=O)[nH]1  serum protein binding (ultrafiltration; normal rat serum; 37 °C): < 6%
O=C(NCCN1CCCC1)c1cc(-c2ccc(CN3CCOCC3)cc2)nc2ccc(F)cc12  intrinsic clearance (dog liver microsomes): ≤ 1.9 mL/min/g
C=CC(=O)Nc1cc(Nc2nccc(-c3cn(C4CC4)c4ccccc34)n2)c(OC)cc1N(C)CCN(C)C  relative error (autosampler stability; rat plasma; 160 ng/mL, 4 h, 10 °C; baseline: nominal concentration): 0.4%
